Experimental data of several laboratories.
Every numbered part comes from another study and shows a few of its results, in no order. Positions count from the first letter of the parent shown.

Set 1
Target: Centromere-binding protein 1, full length, His-tagged (CBF1, Saccharomyces cerevisiae, UniProt P17106, residues 1-351)
UniProt P17106, sequence (whole entry, looked up): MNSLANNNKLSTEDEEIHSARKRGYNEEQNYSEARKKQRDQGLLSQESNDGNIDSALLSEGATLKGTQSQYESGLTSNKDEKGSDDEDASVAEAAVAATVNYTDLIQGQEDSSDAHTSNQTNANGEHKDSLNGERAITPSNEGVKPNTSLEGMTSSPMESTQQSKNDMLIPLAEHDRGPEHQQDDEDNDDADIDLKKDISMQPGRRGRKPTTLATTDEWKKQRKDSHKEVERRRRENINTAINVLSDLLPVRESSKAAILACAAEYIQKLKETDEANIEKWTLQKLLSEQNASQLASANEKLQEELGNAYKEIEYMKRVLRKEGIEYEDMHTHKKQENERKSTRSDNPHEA
Technique: competition protein-binding microarray
Form: double-stranded DNA, one strand shown
Matrix: in vitro
Tested at: 2 µM
Setting: whole 60-bp probe, lowest competitor level
With: Pho4 competitor, 0.05 µM
Direction: higher = stronger binding
| Sequence | fluorescence intensity |
| --- | --- |
| CTTTGCCTTCTTCTCCACATGGAATTACTATTTTCAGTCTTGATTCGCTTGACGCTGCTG | 67.9 a.u. |
| TCGGTTGTCCAAACCCATGTGGTGCTGGTGGCGGAAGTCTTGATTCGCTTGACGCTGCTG | 74.4 a.u. |
| CTAACGAAGGTTTGTCACTTTACTTACAAGCCAAGTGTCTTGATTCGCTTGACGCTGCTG | 83 a.u. |
| AAAGCGGTAATTTGCAGTGTGGGTGCAGATATCTATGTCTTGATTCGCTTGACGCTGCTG | 70.2 a.u. |
| GTGTTAAAGACTTGTAAAAGTTGCCGTAAAACACTAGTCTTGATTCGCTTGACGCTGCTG | 91.7 a.u. |
| GGCCACGGCACAAATATGATGTAGTACTAAGATTTTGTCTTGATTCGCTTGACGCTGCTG | 73 a.u. |
| AGTATAGAGTTTCGGCACGGGTGGCAGCGTTCAAAGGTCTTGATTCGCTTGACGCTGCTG | 73.4 a.u. |
| CTAACGAAGGTTTGATCCGTGGGTGACAAGCCAAGTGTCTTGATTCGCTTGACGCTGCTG | 59.7 a.u. |
| CTAACGAAGGTTTGAGGCGTGGGTGACAAGCCAAGTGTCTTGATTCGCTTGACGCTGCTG | 64.5 a.u. |
| TTTGGGAAGACTTAGCACGTTATATACTATTAATGAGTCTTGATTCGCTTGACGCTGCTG | 201 a.u. |
| GCTTGCTGTCAGCGTCACAGTTAAAGTTCATATACAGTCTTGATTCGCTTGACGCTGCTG | 75.3 a.u. |

Set 2
Target: ABI1, truncated, D143A, DHFR fusion (Arabidopsis thaliana)
Technique: DHFR PCA, deep sequencing
Matrix: yeast
Setting: methotrexate growth selection, single substitutions
With: (+)-ABA 0.0091 µM
Relative to: wild-type fitted maximum
Direction: higher = stronger binding
Parent: PYL1, truncated, DHFR fusion (Arabidopsis thaliana); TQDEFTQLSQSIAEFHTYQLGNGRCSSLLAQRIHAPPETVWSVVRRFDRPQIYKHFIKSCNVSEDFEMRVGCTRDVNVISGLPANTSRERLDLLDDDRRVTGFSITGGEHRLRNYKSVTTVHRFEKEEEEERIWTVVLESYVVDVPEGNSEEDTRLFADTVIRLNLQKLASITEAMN
| Variant | relative binding score [%] |
| --- | --- |
| K58D | 1.08 |
| S117M | 0.646 |
| T154R | -2.11 |
| Y115D | 6.09 |
| P146D | -1.56 |
| F15S | 2.25 |
| I133L | 27 |
| G81T | 35.4 |

Set 3
Target: RNA binding protein fox-1 homolog 2, RRM domain, GST-SBP tag (RBFOX2, Homo sapiens, UniProt O43251-10, residues 100-194)
Technique: RNA Bind-n-Seq
Form: RNA
Matrix: in vitro
Tested at: 365 nM
Setting: natural RNA segment, single round, ends assumed
Relative to: no-protein control
Direction: higher = stronger binding
Residues (chain): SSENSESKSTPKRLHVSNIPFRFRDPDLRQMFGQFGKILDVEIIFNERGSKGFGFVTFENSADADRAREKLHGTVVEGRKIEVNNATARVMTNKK
| Sequence | RBNS enrichment (R) |
| --- | --- |
| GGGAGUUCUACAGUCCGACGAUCUGUGACUGCCCACUGCCCAGCUGCCUCGGGUACAAGUCCUGGCCCUAUGUCCCAGCUGUCAGGGGCUCAGGGAAUCCUACCCAGCCACCUGUCCUGGGAUGGAGUGUCAGUGGAAUUCUCGGGUGCCAA | 0.2 |
| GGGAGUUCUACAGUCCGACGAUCGAUUCACUGUGCUUUCCUUUCAAAUCCAGUUCUUCCACAGCAACUAGCCCAUAGUCAGUCUGUGUUCUUCCACAGUUGUUUACGGUAGCCUUUUCCUAUCCACUUCCCUUUGGAAUUCUCGGGUGCCAA | 0.545 |
| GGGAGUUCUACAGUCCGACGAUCUUGUAUUUUUAGUAGAGACAGGGUUUCACCAUGUUGGCCAGGCUGGUCUUGAACUCCUGACCGCAGGUAAUCCACCUGCUUCGGCCUCCCAAAGUGCUGGGAUUACAGGCUGGAAUUCUCGGGUGCCAA | 0.292 |
| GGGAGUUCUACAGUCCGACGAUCUGCAGUUUGCCAACUUGUCUGCGUGCCAGCCAGCCACAGGGUGAUUCCAGAAGAGAGCUAUUUAAACUGGUGGACAUGGGAUUGGAGUCUGGUGUUAGAUUGUUUUGAAUUGGAAUUCUCGGGUGCCAA | 0.581 |
| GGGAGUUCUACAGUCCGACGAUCUGGUUUAGUUCUCCCCGCCUCCCUGUUUCUUGGAAAAGCUACAGGGUCCCUGUAGGGCAAAAUUCCCAGGCGCCUUGCUGCAGACAGAGUAAGACAAAAACACCAGGAAGUGGAAUUCUCGGGUGCCAA | 0.308 |
| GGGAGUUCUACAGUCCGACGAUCUCAUCUAGGUUUAUAGUUCAGUAGCUUAGGCAAGGCACACACUGCUCAUCUCCGCUUUUUAGGGUCAGAGGAACACAAGCUCAUGUUCUGAGUGAAGGGCGUACACUGGCUGGAAUUCUCGGGUGCCAA | 0.23 |
| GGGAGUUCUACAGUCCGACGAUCAACCUUCGGUCAGGGAUGUCGUUGGGGAAGUGACUUCAAAAGUAUUCAAAAUUUGACAUGCUGUUUGUUUAGUCACUACAGUGCCCUCAAAGGGCAGACAUUGCAGCCUUUGGAAUUCUCGGGUGCCAA | 0.327 |
| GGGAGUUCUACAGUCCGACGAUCGAAGCAAAAGUAAUUUUUCUUGACAUUUGAGGACCUUCCUGAGGCUUCUAAAGUGUUCAUCCUGAUCACCUGAAGGGUGUGAUUUUAGCAGAGCUGAGAGUGGCUGGUGGUGGAAUUCUCGGGUGCCAA | 0.304 |

Further values, each from its own experiment
| Substance | target | assay | system | conditions | how to read | quantity | value |
| --- | --- | --- | --- | --- | --- | --- | --- |
| PhoQ, residues 284 288 289 292 302 303 QWGLFV | PhoP, residues 12 14 15 18 19 NIMAP (Escherichia coli, UniProt P23836) | Sort-seq, measured: YFP reporter | E. coli | PhoQ-PhoP variant library, with: 10 µM Mg2+ | relative to: high Mg2+ state, higher = stronger signaling | fold induction | 0.769 |

For quick reference, copied from above (set 1):
| Sequence | fluorescence intensity |
| --- | --- |
| AAAGCGGTAATTTGCAGTGTGGGTGCAGATATCTATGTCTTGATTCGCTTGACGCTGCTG | 70.2 a.u. |
| GTGTTAAAGACTTGTAAAAGTTGCCGTAAAACACTAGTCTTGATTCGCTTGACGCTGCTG | 91.7 a.u. |
